Measured values of several laboratories.
Numbered parts are unrelated; each lists some results of a single study. Positions count from the first letter of the parent shown.

Series 1 — target: CCND2, cyclin fold, Cln2 fusion (human); technique: yeast growth competition, sequencing; matrix: yeast; setting: weak parent motif; reference: not given; reading: higher = stronger binding
Starting sequence: RB1 docking peptide (human); PKPLKKLRFDIEG; partner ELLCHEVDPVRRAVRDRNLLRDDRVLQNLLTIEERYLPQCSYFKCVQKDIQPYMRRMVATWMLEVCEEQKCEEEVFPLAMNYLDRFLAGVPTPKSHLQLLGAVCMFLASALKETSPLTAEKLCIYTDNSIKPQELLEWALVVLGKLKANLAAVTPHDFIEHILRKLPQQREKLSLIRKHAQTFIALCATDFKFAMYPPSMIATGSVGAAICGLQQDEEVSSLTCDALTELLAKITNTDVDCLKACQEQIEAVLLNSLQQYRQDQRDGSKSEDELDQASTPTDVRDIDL
Change	normalised enrichment score
L4K	-0.145
P1G	0.18
I11W	0.35
L7D	-0.123
K6T	0.133
G13N	-0.222
I11V	0.726
F9V	0.196
E12H	-0.00277
L4T	0.168
F9N	0.578
K5T	0.348
E12N	0.582

Series 2 — technique: DHFR PCA, deep sequencing; matrix: yeast; added: (+)-ABA 200 µM; reference: wild-type fitted maximum; reading: higher = stronger binding
Target: ABI1, truncated, D143A, DHFR fusion (Arabidopsis thaliana)
Setting: methotrexate growth selection, single substitutions
Starting sequence: PYL1, truncated, DHFR fusion (Arabidopsis thaliana); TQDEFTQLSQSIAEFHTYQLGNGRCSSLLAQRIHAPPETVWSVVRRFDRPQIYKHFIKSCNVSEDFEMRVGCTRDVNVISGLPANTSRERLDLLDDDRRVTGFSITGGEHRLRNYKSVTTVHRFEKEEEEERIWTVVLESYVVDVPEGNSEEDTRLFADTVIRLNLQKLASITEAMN; partner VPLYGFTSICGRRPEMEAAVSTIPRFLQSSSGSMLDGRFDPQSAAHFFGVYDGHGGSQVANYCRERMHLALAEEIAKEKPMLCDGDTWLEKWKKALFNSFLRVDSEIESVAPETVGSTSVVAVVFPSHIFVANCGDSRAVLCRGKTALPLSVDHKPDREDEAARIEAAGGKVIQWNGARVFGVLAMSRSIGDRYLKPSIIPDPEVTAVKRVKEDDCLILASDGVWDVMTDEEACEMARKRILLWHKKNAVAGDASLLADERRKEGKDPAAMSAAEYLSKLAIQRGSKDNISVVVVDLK
Change	relative binding score
D159K	45.7%
E139C	91.7%
R113A	104%
E151I	94.4%
E64N	101%
Q51V	58.2%
L91K	8.17%
M68E	79.8%
L8M	90.6%
L20M	97.6%
S104I	42.9%

Series 3 — technique: Sort-seq; measured: YFP reporter; matrix: E. coli; setting: PhoQ-PhoP variant library; added: 10 µM Mg2+; reference: high Mg2+ state; reading: higher = stronger signaling
Molecule: PhoQ, residues 284 288 289 292 302 303 NLCILV
target	fold induction
PhoP, residues 12 14 15 18 19 LHTVL (Escherichia coli, UniProt P23836)	0.129
PhoP, residues 12 14 15 18 19 NQCAL (Escherichia coli, UniProt P23836)	21.3
PhoP, residues 12 14 15 18 19 TQAML (Escherichia coli, UniProt P23836)	27.8

Series 4 — technique: RNA Bind-n-Seq; molecule type: RNA; matrix: in vitro; concentration: 365 nM; reference: no-protein control; reading: higher = stronger binding
Target: RNA binding protein fox-1 homolog 2, RRM domain, GST-SBP tag (RBFOX2, Homo sapiens, UniProt O43251-10, residues 100-194)
Setting: natural RNA segment, single round, ends assumed
All sequences stand within: GGGAGUUCUACAGUCCGACGAUC … UGGAAUUCUCGGGUGCCAA
Residues (chain): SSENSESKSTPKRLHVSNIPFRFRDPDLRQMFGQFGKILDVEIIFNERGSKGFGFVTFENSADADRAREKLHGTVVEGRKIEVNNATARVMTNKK
Strand	RBNS enrichment (R)
CUUUUUUUCUUUUUUGCCUUUUAUUCCUUUAAAAUUUCGCCUGGCAAAAAAUAAAUAAAUGGAACUAUCACUUUAUAAGAAUCAUUUUCUAGUAAUGCAAACAAAUUAUU	1.23
UGAGCCCUGGGUGGCCGUGCAGUUUCAGUUAUUUUUAGCAGUGCACUGUUUGAGGAAAAAUUACCUGUCUUGACUUCCUGUGUUUAUCAUCUUAAGUAUUGUAAGCUGCU	0.455
UGCCUUCAGAUGCUCCUGGUGGUCAGCUCAACUAGCAAGACCCUAGUCCCCUGUUCCAAAGCCAUCUCAUAUGUUAGUUCUCUGUCCCAUGAAGAGGGCCGUGGUGAGUU	0.27
UUGCUCAGCAGCGGACUUACUCCCAGCGCCUUCCCUCCCUCCUGUCCCUCCUGUCCCCUCACUGUCCACUUUCUGUUCUUUCCUUGGGUUUCCUGUGAAGUUGGAGGGAC	1.08
AAUGAACUUUAACAUUUUAGUCCAAUGUGACUAGUCAAAUAAACCAAAUAAACUGAGUAUUUUGUCUAAUUUUUGGGAUUGUAUAUUUCUCAGCUGGGUCACAGGUUUGG	0.439
CCUUAGACUGAUGCUUUGACUGAAUCAUCACUAGCUAUGGCAUUAAAAGGCCUCUCUUCUCAUCUGGUGCCAAAGGUUCCGUUGCAGCUUUUUACAACCAUCCGGUGUGG	0.349
GUUGGCUGGCCUCUUGGACCAGAAGCCAUCUCCAUAUCCUCAUGAGCGAUUCCAUAUCUCCACUCAGACCCUGUGGACUACAGUGUUCCGCUGUGGUGGCUGCCAAGAUG	0.359
UUGCCGUCUGGACCAUUGAUUGAUUGUGACCAGUAGCAGAAGGGUGCCUGUUACAUAGAGAGGCUCCUUCUGUCCAAAUGAAUUUCUGUAUACUCUUCUAUAAAUAAAAG	0.543
GAGGCCCCGGCACAGCCCUGCAGAGAUGCAAGUAAGAGAGUGCCCAGUGCCCUCGGCAGAUGGGUGGCAGAAAGCAGGAGGAGGAAGAGGGAGCUGACCGAUGCCGGGUG	0.568
AUGCAUGCUUAUGUGAGCAGCUGGACUCCCGCUCAGUACAGGCCUGGAACCCCAGGCCAAAUGUAUGCUCUGCUUCCUUGAGUGCUGUAAGAGUUCCCACUGGCCUUGCU	23.6
AUCUUUGUAAAAUGCGCAAGUGCAAUAAUUUAAAGAGGUCUUAACUUUGCAUUUAUAAAUUAUAAAUAUUGUACAUGUGUGUAAUUUUUUCAUGUAUUCAUUUGCAGUCU	0.772
CAUUUAGAGCUUUGUGCUUUUCUCUCAUUCCAUCACUUUGUAAUGAUGAUACUUAACAUGAGCAGGGUGAAUGACAGGUACUGACGAAGUCCAACACAAAGGUAUAAUAC	0.565

Some of these lines once more (series 1):
Change	normalised enrichment score
E12H	-0.00277
I11W	0.35
L4T	0.168
G13N	-0.222
I11V	0.726
